Experimental data from different studies.
Compare with care: the assays were run in different laboratories.

CC[C@H](C)[C@@H]1NC(=O)[C@H]([C@@H](C)O)NC(=O)[C@H](CO)NC(=O)[C@H](CCSC)NC(=O)[C@H](CCCNC(=N)N)NC(=O)[C@@H]2CCCN2C(=O)[C@H](CC(=O)O)NC(=O)CNC(=O)[C@@H]2CSSC[C@@H]3NC(=O)[C@H]([C@@H](C)O)NC(=O)[C@H](CCCCN)NC(=O)[C@@H]4CCCN4C(=O)[C@H](CSSC[C@H](NC(=O)[C@H](C(C)C)NC(=O)[C@H](CC(N)=O)NC(=O)[C@H](CCC(N)=O)NC(=O)[C@@H]4CCCN4C(=O)[C@H]([C@@H](C)CC)NC(=O)[C@H](CCCNC(=N)N)NC(=O)[C@H](CC(=O)O)NC(=O)[C@H](CCCNC(=N)N)NC(=O)[C@@H](N)CSSC[C@@H](C(N)=O)NC(=O)[C@H](CCCCN)NC(=O)CNC3=O)C(=O)N[C@@H](CCC(=O)O)C(=O)N[C@@H](CCC(N)=O)C(=O)N[C@@H](CCSC)C(=O)N[C@@H](CCCCN)C(=O)N[C@@H](CCCCN)C(=O)N[C@@H](CC(N)=O)C(=O)NCC(=O)N[C@@H](CCCCN)C(=O)N2)NC(=O)[C@H](CCC(N)=O)NC(=O)[C@H](CC(C)C)NC(=O)[C@H](CCC(=O)O)NC(=O)[C@H](C)NC1=O
time to complete degradation (porcine simulated intestinal fluid): 24 h

C[C@]12CC[C@H](OC(=O)NC3CCNCC3)C[C@H]1CC[C@@H]1[C@@H]2CC[C@]2(C)[C@@H](c3ccc(=O)oc3)CC[C@]12O
time to death (male pigmented guinea pigs; intraperitoneal, 9 mg/kg): < 1 h

CC[C@H](C)[C@@H]1NC(=O)[C@H](CCCNC(=N)N)NC(=O)[C@H](CC(=O)O)NC(=O)[C@H](CCSC)NC(=O)[C@H](CCCCN)NC(=O)[C@H](CCCNC(=N)N)NC(=O)CNC(=O)[C@H](Cc2ccccc2)NC(=O)[C@@H](NC(=O)CNC(=O)[C@H](CO)NC(=O)CNC(=O)[C@H](CCC(N)=O)NC(=O)[C@@H](NC(=O)[C@H](CCSC)NC(=O)[C@H](CCCCN)NC(=O)[C@@H]2CCCN2C(=O)[C@@H](N)CO)C(C)C)CSSC[C@@H](C(=O)N[C@@H](CCCCN)C(=O)N[C@H](C(=O)N[C@@H](CC(C)C)C(=O)N[C@@H](CCCN=C(N)N)C(=O)N[C@@H](CCCN=C(N)N)C(=O)N[C@@H](Cc2cnc[nH]2)C(=O)O)C(C)C)NC(=O)CNC(=O)[C@H](CC(C)C)NC(=O)CNC(=O)[C@H](CO)NC(=O)[C@H](CO)NC(=O)[C@H](CO)NC(=O)[C@H](CO)NC1=O
time to inactivation (human kidney membranes; 1 µM, pH 7.5, 37 °C): ~20 min

O=C(Cc1ccc2ccccc2c1)N[C@H](Cc1ccccc1)C(=O)N[C@H](Cc1ccc(O)cc1)C(=O)N[C@H](Cc1ccccc1)C(=O)N[C@H](Cc1ccc(OP(=O)(O)O)cc1)C(=O)O
time to 50% dephosphorylation (substrate; SAOS-2 cell lysate; 500 µM, pH 7.4, 37 °C): ≤ 120 min

CC(C)(C)OC(=O)C[C@H](NC(=O)OCc1ccccc1)C(=O)CBr
time to onset of degradation (mass spectrometry; solution; loss of tert-butyl group): > 6 h

CC[C@H](C)[C@@H]1NC(=O)[C@H](Cc2ccc(O)cc2)NC(=O)[C@@H](N)Cn2cc(nn2)CCCC[C@@H](C(=O)N2CCC[C@H]2C(=O)N[C@@H](CC(C)C)C(=O)NCC(N)=O)NC(=O)[C@H](CC(N)=O)NC(=O)[C@H](CCC(N)=O)NC1=O
time to disappearance (RP-HPLC; human pregnancy serum; 37 °C): 10 days

CC[C@H](C)[C@H](NC(=O)CNC(=O)[C@H](CSCC(N)=O)NC(=O)[C@@H](NC(=O)CNC(=O)[C@H](CCCNC(=N)N)NC(=O)[C@@H](NC(=O)[C@H](CCCNC(=N)N)NC(=O)[C@H](CCC(=O)O)NC(=O)CNC(=O)[C@H](CCCNC(=N)N)NC(=O)[C@H](CCCCN)NC(=O)[C@H](CSCC(N)=O)NC(=O)[C@H](Cc1c[nH]cn1)NC(=O)CNC(=O)[C@H](CCCCN)NC(=O)[C@H](CCCNC(=N)N)NC(=O)[C@H](CSCC(N)=O)NC(=O)[C@H](Cc1ccc(O)cc1)NC(=O)[C@@H](N)CSCC(N)=O)C(C)C)[C@@H](C)O)C(=O)N[C@@H](CCCNC(=N)N)C(=O)N[C@@H](Cc1ccccc1)C(=O)N[C@@H](CC(C)C)C(=O)N[C@@H](Cc1ccc(O)cc1)C(=O)N[C@@H](CSCC(N)=O)C(=O)N[C@@H](CSCC(N)=O)C(=O)N1CCC[C@H]1C(=O)N[C@@H](CCCNC(=N)N)C(=O)N[C@@H](CCCNC(=N)N)C(=O)NCC(=O)N[C@@H](CC(C)C)C(=O)N[C@@H](CC(C)C)C(=O)NO
time to complete proteolysis (100% human serum; 27 µM, 37 °C, heat-inactivated serum): 10 to 30 min

COC1CC(OC2CCC3(C)C(CCC45OC46CCC(C(C)=O)C6(C)C(OC(C)=O)C(OC(=O)c4ccccc4)C35)C2)OC(C)C1OC1OC(C)C(OC2OC(CO)C(O)C(O)C2O)C(OC)C1O (stereo not shown)
time to complete conversion (pooled human faecal microbiota; 50 µM, 37 °C, anaerobic): ≤ 8 h

CC[C@H](C)[C@H](N)C(=O)N[C@@H](CC(N)=O)C(=O)N[C@H]1CSC(=O)[C@H](CC(C)C)NC(=O)[C@H](CC(C)C)NC(=O)[C@H](Cc2ccccc2)NC(=O)[C@H](CC(=O)O)NC1=O
time to complete degradation (HPLC; ammonium carbonate; 0.33 mM, pH 8.0, 37 °C): ~8 h

CC=C(C)C(=O)OC1C2C3(C)CCC(OC4CC(OC)C(OC5OC(C)C(OC6OC(CO)C(O)C(O)C6O)C(OC)C5O)C(C)O4)CC3CCC23OC32CCC(C(C)=O)C2(C)C1OC(C)=O (stereo not shown)
time to complete conversion (pooled human faecal microbiota; 50 µM, 37 °C, anaerobic): ≤ 8 h

C[C@H](N)C(=O)OCCOCn1cnc2c(=O)[nH]c(N)nc21
time to complete hydrolysis (rabbit corneal homogenate; 0.133 mM, pH 7.4): < 5 min

CC[C@H](C)[C@H](NC(=O)[C@H](CCCNC(=N)N)NC(=O)[C@H](CC(C)C)NC(=O)[C@@H](N)Cc1ccccc1)C(=O)N[C@@H](CCCNC(=N)N)C(=O)N1CCC[C@H]1C(=O)N[C@@H](CCCCN)C(=O)O
time to complete degradation (RP-HPLC; rat plasma; 37 °C): ≤ 4 h

CC[C@H](C)[C@@H]1NC(=O)[C@H](CC(N)=O)NC(=O)[C@@H]2CCCN2C(=O)[C@@H](NC(=O)[C@H](CC(N)=O)NC(=O)[C@@H](N)CCC(N)=O)COC(=O)[C@H](CCSC)NC(=O)[C@H](Cc2c[nH]c3ccccc23)NC(=O)[C@H](CCC(N)=O)NC(=O)CNC(=O)[C@H](Cc2ccccc2)NC1=O
time to complete degradation (human plasma; 37 °C): 1 h

Some of these lines once more:
O=C(Cc1ccc2ccccc2c1)N[C@H](Cc1ccccc1)C(=O)N[C@H](Cc1ccc(O)cc1)C(=O)N[C@H](Cc1ccccc1)C(=O)N[C@H](Cc1ccc(OP(=O)(O)O)cc1)C(=O)O
time to 50% dephosphorylation (substrate; SAOS-2 cell lysate; 500 µM, pH 7.4, 37 °C): ≤ 120 min

CC(C)(C)OC(=O)C[C@H](NC(=O)OCc1ccccc1)C(=O)CBr
time to onset of degradation (mass spectrometry; solution; loss of tert-butyl group): > 6 h
